# Experimental data collected from several papers.
# Each line is one published result; not all experiments were run side by side. ± gives the spread as reported.
# Cell line: HL-60
Compound,effect on,technique,time,added,IC50 [µM]
O=C1c2ccc(O)cc2OC1(O)Cc1ccc(O)c(O)c1 (stereo not drawn),cell growth or viability,MTT,72 h,,42.5
CSC[C@@H]1C(=O)O[C@H]2[C@H]1CC/C(C)=C/CC[C@@]1(C)O[C@@H]21,cell growth or viability,MTT,72 h,,> 50
CSCCC(NC(C)=O)C(=O)O.[Ru+2].c1ccc(-c2cccc(-c3ccccn3)n2)nc1.c1ccc(-c2ccccn2)nc1,cell viability,,,light 22 J/cm^2,> 100
COc1c(O)cc2oc3c(Br)c(O)c(CC=C(C)C)c(O)c3c(=O)c2c1CC=C(C)C,cell growth or viability,,48 h,,> 40
O=C1c2ccc3c4cccc5cccc(c6ccc(c2c36)C(=O)N1CCN1CCCCC1)c54,cell growth or viability,SRB,72 h,,43.4
Cc1cccc2c(=O)c3c(NCCCCCC(=O)Nc4ccccc4N)ccc([N+](=O)[O-])c3[nH]c12,cell growth or viability,MTT,72 h,,1.1
COc1c(O)c(Br)c2oc3c(Br)c(O)c(CC=C(C)C)c(O)c3c(=O)c2c1CC=C(C)C,cell growth or viability,,48 h,,16.9
CCCCN(C)C(=S)SC[C@@H]1C(=O)O[C@H]2[C@H]1CC/C(C)=C/CC[C@@]1(C)O[C@@H]21,cell growth or viability,MTT,72 h,,11.3
Cc1cc(/C=C/C#N)cc(C)c1Oc1cc(Nc2ccc(C#N)cn2)nc2cnccc12,,,48 h,,> 120
[Ru+2].c1ccc(-c2cccc(-c3ccccn3)n2)nc1.c1ccc2nc(-c3ccc4ccccc4n3)ccc2c1.c1ccncc1,cell viability,,,light 22 J/cm^2,11 ± 0.2
CCN(CC)CCN1C(=O)c2ccc3c4cccc5cccc(c6ccc(c2c36)C1=O)c54,cell growth or viability,SRB,72 h,,5.5
CC(C)=CCn1c2ccc(Br)c(=O)c-2nc2ccccc21,cell growth or viability,CCK-8,72 h,,0.67
Cc1cc(C#N)cc(C)c1Oc1cc(Nc2ccc(C#N)cc2)nc2ccncc12,,,48 h,,> 128
CC(C)=CCc1c(O)cc2oc3cc(O)c(O)c(CC=C(C)C)c3c(=O)c2c1O,cell growth or viability,,48 h,,7.39
CSC(=S)NCc1cccnc1,cell growth or viability,MTT,72 h,,5.7
COc1c(O)cc2oc3cc(O)c(CC=C(C)C)c(O)c3c(=O)c2c1CC=C(C)C,cell growth or viability,,48 h,,15
C/C1=C\CC[C@@]2(C)O[C@H]2[C@H]2OC(=O)[C@@H](CSC(=S)N(C)Cc3cccnc3)[C@@H]2CC1,cell growth or viability,MTT,72 h,,20.5
Cc1cc(C#N)cc(C)c1Oc1cc(Nc2ccc(C#N)cc2)nc2cnccc12,,,48 h,,> 128

# A few entries again:
Compound,effect on,technique,time,added,IC50 [µM]
CC(C)=CCn1c2ccc(Br)c(=O)c-2nc2ccccc21,cell growth or viability,CCK-8,72 h,,0.67
